Assay results pooled from the literature.
Numbers after ± are the reported error.
Method: steady-state kinetics
B1: MCAT R178Q (Homo sapiens, UniProt Q8IVS2); chain GQGSQVVGMGRGLLNYPRVRELYAAARRVLGYDLLELSLHGPQETLDRTVHCQPAIFVASLAAVEKLHHLQPSVIENCVAAAGFSVGEFAALVFAGAMEFAEGLYAVKIQAEAMQEASEAVPSGMLSVLGQPQSKFNFACLEAREHCKSLGIENPVCEVSNYLFPDCRVISGHQEALRFLQKNSSKFHFRRTRMLPVSGAFHTRLMEPAVEPLTQALKAVDIKKPLVSVYSNVHAHRYRHPGHIHKLLAQQLVSPVKWEQTMHAIYERKKGRGFPQTFEVGPGRQLGAILKSCNMQAWKSYSAVDVL
B2: enzyme R447A (Sinorhizobium meliloti, UniProt Q92UV7); chain MTNAEVTIAVRHEPMRIAGRLVDTDDRVEVRYPWNDTVVGTVPAGRAEHAREAFAIAAAYQPKLTRYERQKILLATAEALAARKEEISDVITLELGISKADSLYEVGRAFDVFTLAGQMCIRDDGEIFSCDLTPHGKARKIFTMREPLTAISAITPFNHPLNMVAHKVAPAIATNNCVVVKPTELTPMTALLLADILYEAGLPPEMLSVVTGWPADIGMEMITNPHVDLVTFTGSVPVGKLIAANAHYKRQVLELGGNDPLIILNDLSDDDLARAADLAVAGATKNSGQRCTAVKRILCQESVADRFVPLVLERAKRLRFGDPMDRSTDLGTVIHEKAAALFEERVMRAAEEGADILYHPGRSGALLPPIVVDRVPHQSDLVLEETFGPIIPIVRVPDDDDATITLSNSTAFGLSSGVCTNDYRRMQKYIAGLKVGTVNIWEVPGYAIEMSPFGGIKDSGNGYKEGVIEAMKSFTNVKTFSLPWP
B3: enzyme (Brachypodium distachyon, UniProt I1HY48); chain MGSIASEERTVTGWAARDADGHLSPYTYTLRKTGPEDVLVKVLYCGICHTDIHQAKNHLGASKYPMVPGHEVVGEVVEVGGEVSKYSAGDVVGVGVIVGCCRECRPCKASVEQYCNKRIWSYNDVYTDGRPTQGGFSSAMVVDQKFVVRIPAGLAPEQAAPLLCAGVTVYSPLKHFGLMSPGLRGGILGLGGVGHMGVKVAKSMGHHVTVISSSGKKRAEAMDDLGADAYLVSSDADQMAAAADSLDYVIDTVPVKHPLEPYLSLLKMDGKLVLMGVIGEPLSFVSPMVMLGRKSITGSFIGSMEETEEVLKFCVEKGLTSQIEVVKMDYLNEALERLERNDVRYRFVVDVAGSKIEDAA
B4: iodotyrosine deiodinase (Haliscomenobacter hydrossis, UniProt F4KU78); chain MKQKPAFIPYAGAQFEPEEMLSKSAEYYQFMDHRRTVREFSNRAIPLEVIENIVMTASTAPSGAHKQPWTFVVVSDPQIKAKIRQAAEKEEFESYNGRMSNEWLEDLQPFGTDWHKPFLEIAPYLIVVFRKAYDVLPDGTQRKNYYVQESVGIACGFLLAAIHQAGLVALTHTPSPMNFLQKILQRPENERPFLLVPVGYPAEGAMVPDLQRKDKAAVMVVY
B5: protein Y93G (Thermus thermophilus, UniProt Q5SKR5); chain MSAPKPFVIGIAGGTASGKTTLAQALARTLGERVALLPMDHYYKDLGHLPLEERLRVNYDHPDAFDLALYLEHAQALLRGLPVEMPVYDFRAGTRSPRRTPVRPAPVVILEGILVLYPKELRDLMDLKVFVDADADERFIRRLKRDVLERGRSLEGVVAQYLEQVKPMHLHFVEPTKRYADVIVPRGGQNPVALEMLAAKALARLARMGAA
B6: ltaE H83F (Escherichia coli, UniProt P75823); chain MIDLRSDTVTRPSRAMLEAMMAAPVGDDVYGDDPTVNALQDYAAELSGKEAAIFLPTGTQANLVALLSHCERGEEYIVGQAAFNYLFEAGGAAVLGSIQPQPIDAAADGTLPLDKVAMKIKPDDIHFARTKLLSLENTHNGKVLPREYLKEAWEFTRERNLALHVDGARIFNAVVAYGCELKEITQYCDSFTICLSKGLGTPVGSLLVGNRDYIKRAIRWRKMTGGGMRQSGILAAAGIYALKNNVARLQEDHDNAAWMAEQLREAGADVMRQDTNMLFVRVGEENAAALGEYMKARNVLINASPIVRLVTHLDVSREQLAEVAAHWRAFLAR
B7: cyc1 F96W (Streptomyces coelicolor, UniProt Q9K499); chain MHAFPHGTTATPTAIAVPPSLRLPVIEAAFPRQLHPYWPKLQETTRTWLLEKRLMPADKVEEYADGLCYTDLMAGYYLGAPDEVLQAIADYSAWFWVWDDRHDRDIVHGRAGAWRRLRGLLHTALDSPGDHLHHEDTLVAGFADSVRRLYAFLPATWNARFARHFHTVIEAYDREFHNRTRGIVPGVEEYLELRRLTFAHWIWTDLLEPSSGCELPDAVRKHPAYRRAALLSQEFAAWYNDLCSLPKEIAGDEVHNLGISLITHHSLTLEEAIGEVRRRVEECITEFLAVERDALRFADELADGTVRGKELSGAVRANVGNMRNWFSSVYWFHHESGRYMVDSWDDRSTPPYVNNEAAGEK
B8: BaiA1 (Clostridium scindens, UniProt P07914); chain MKLVQDKITIITGGTRGIGFAAAKLFIENGAKVSIFGETQEEVDTALAQLKELYPEEEVLGFAPDLTSRDAVMAAVGTVAQKYGRLDVMINNAGITMNSVFSRVSEEDFKNIMDINVNGVFNGAWSAYQCMKDAKQGVIINTASVTGIYGSLSGIGYPTSKAGVIGLTHGLGREIIRKNIRVVGVAPGVVDTDMTKGLPPEILEDYLKTLPMKRMLKPEEIANVYLFLASDLASGITATTISVDGAYRP
B9: asnB E349Q (Escherichia coli, UniProt P22106); chain CSIFGVFDIKTDAVELRKKALELSRLMRHRGPDWSGIYASDNAILAHERLSIVDVNAGAQPLYNQQKTHVLAVNGEIYNHQALRAEYGDRYQFQTGSDCEVILALYQEKGPEFLDDLQGMFAFALYDSEKDAYLIGRDHLGIIPLYMGYDEHGQLYVASEMKALVPVCRTIKEFPAGSYLWSQDGEIRSYYHRDWFDYDAVKDNVTDKNELRQALEDSVKSHLMSDVPYGVLLSGGLDSSIISAITKKYAARRVEDQERSEAWWPQLHSFAVGLPGSPDLKAAQEVANHLGTVHHEIHFTVQEGLDAIRDVIYHIETYDVTTIRASTPMYLMSRKIKAMGIKMVLSGQGSDEVFGGYLYFHKAPNAKELHEETVRKLLALHMYDCARANKAMSAWGVEARVPFLDKKFLDVAMRINPQDKMCGNGKMEKHILRECFEAYLPASVAWRQKEQFSDGVGYSWIDTLKEVAAQQVSDQQLETARFRFPYNTPTSKEAYLYREIFEELFPLPSAAECVPGGPSVACSSAKAIEWDEAFKKMDDPSGRAVGVHQSAYK
Sequence of UniProt P00433 (whole entry, looked up): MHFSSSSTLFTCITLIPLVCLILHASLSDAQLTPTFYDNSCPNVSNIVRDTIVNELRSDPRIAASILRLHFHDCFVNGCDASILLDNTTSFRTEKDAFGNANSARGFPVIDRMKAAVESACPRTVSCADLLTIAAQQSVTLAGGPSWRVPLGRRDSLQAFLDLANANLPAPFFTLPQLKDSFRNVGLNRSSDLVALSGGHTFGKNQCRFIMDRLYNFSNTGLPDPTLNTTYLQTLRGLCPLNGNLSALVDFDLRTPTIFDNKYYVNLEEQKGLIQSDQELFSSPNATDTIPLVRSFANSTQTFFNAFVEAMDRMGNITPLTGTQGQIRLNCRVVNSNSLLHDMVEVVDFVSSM
Sequence of UniProt P14780 (whole entry, looked up): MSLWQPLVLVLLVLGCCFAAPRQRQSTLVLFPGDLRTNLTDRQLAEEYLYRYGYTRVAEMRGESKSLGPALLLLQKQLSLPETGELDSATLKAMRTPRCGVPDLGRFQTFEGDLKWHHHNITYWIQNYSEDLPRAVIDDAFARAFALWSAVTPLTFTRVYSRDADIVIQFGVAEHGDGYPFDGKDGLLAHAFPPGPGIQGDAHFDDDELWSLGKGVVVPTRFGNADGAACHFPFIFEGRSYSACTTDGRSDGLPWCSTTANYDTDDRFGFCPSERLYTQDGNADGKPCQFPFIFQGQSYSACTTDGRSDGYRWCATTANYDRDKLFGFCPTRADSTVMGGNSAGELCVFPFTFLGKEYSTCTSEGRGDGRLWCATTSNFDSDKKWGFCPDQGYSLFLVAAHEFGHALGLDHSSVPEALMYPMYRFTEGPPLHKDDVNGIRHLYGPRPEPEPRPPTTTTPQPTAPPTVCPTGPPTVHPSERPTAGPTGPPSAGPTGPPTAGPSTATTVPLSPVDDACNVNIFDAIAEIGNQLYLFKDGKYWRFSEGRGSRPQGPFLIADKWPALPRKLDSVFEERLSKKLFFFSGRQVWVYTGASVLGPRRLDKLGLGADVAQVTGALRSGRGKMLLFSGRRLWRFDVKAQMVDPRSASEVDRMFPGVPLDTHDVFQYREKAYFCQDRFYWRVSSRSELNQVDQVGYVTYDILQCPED
Sequence of UniProt Q9UBT6 (whole entry, looked up): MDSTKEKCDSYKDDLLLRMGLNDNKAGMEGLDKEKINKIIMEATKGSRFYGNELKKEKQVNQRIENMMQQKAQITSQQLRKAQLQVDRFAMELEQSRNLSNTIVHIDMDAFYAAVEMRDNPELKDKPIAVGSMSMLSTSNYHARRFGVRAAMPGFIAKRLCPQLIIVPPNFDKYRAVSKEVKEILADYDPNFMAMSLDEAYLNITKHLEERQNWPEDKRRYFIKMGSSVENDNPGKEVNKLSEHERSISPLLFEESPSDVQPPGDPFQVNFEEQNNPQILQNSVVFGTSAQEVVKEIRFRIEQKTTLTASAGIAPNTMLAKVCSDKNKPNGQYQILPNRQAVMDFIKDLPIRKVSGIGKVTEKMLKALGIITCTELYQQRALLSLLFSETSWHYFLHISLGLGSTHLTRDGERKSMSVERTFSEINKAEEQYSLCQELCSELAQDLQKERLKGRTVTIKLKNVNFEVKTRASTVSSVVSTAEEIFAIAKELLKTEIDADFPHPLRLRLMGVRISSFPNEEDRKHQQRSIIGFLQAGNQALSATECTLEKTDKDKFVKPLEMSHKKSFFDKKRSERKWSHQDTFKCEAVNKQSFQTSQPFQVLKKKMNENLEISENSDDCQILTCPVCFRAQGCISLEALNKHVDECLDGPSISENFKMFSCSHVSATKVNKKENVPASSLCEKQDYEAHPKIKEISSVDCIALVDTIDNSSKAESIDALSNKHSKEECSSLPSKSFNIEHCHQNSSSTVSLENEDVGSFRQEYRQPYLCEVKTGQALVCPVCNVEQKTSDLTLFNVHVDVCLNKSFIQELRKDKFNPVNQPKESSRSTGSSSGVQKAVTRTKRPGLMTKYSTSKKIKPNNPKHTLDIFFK

Substance	substrate	setting	kcat [s⁻¹]
B1 (MCAT R178Q)	CC(C)(COP(=O)(O)OP(=O)(O)OC[C@H]1O[C@@H](n2cnc3c(N)ncnc32)[C@H](O)[C@@H]1OP(=O)(O)O)[C@@H](O)C(=O)NCCC(=O)NCCSC(=O)CC(=O)O	pH 6.8, 20 °C, labelled substrate, with: holo-ACP 20 µM	0.00217 ± 0.000167
B2 (enzyme R447A)	NC(=O)c1ccc[n+]([C@@H]2O[C@H](COP(=O)(O)OP(=O)(O)OC[C@H]3O[C@@H](n4cnc5c(N)ncnc54)[C@H](O)[C@@H]3O)[C@@H](O)[C@H]2O)c1	pH 7.5, 30 °C, cofactor varied	0.076 ± 0.003
DAD V1M (Burkholderia sp.)	O=C(CO)c1ccc(O)cc1	pH 6, 20 °C, with: O2	2.42 ± 0.03
POLK (Homo sapiens, UniProt Q9UBT6)	Nc1ccn([C@H]2C[C@H](O)[C@@H](COP(=O)(O)OP(=O)(O)OP(=O)(O)O)O2)c(=O)n1	pH 7.5, 23 °C, MgCl2 5 mM, with: G template	0.01 ± 0.001
B3 (enzyme)	NC(=O)C1=CN([C@@H]2O[C@H](COP(=O)(O)OP(=O)(O)OC[C@H]3O[C@@H](n4cnc5c(N)ncnc54)[C@H](OP(=O)(O)O)[C@@H]3O)[C@@H](O)[C@H]2O)C=CC1	pH 6.25, 23 °C, cofactor varied	38.2
c3712 (Escherichia coli, UniProt A0A0H2VDD9)	CCCCCCCC(=O)O	pH 7.5, 30 °C	0.00117 ± 0.000167
B4 (iodotyrosine deiodinase)	N#Cc1cc(C[C@H](N)C(=O)O)cc(I)c1O	pH 7.4, 25 °C	0.04 ± 0.008
B5 (protein Y93G)	Nc1ccn([C@@H]2O[C@H](CO)[C@@H](O)[C@H]2O)c(=O)n1	pH 7.2, 25 °C, KCl 100 mM, with: ATP 100–200 µM	2.9 ± 0.2
pgmB (Lactococcus lactis, UniProt P71447)	O=P(O)(O)OC[C@H]1O[C@@H](OP(=O)(O)O)[C@H](O)[C@@H](O)[C@@H]1O	pH 7, 25 °C	0.0298 ± 0.008
B6 (ltaE H83F)	C[C@H](O)[C@H](N)C(=O)O	pH 7, 30 °C, potassium phosphate 20 mM, retro-aldol cleavage, with: PLP 500 µM	0.0617
B7 (cyc1 F96W)	CC(C)=CCC/C(C)=C/CC/C(C)=C/CO[P@@](=O)(O)OP(=O)(O)O	pH 6.5, 30 °C, with: MgCl2 10 mM	0.00035 ± 2e-05
Ptb (Listeria monocytogenes, UniProt Q8Y7B7)	CC(C)C(=O)SCCNC(=O)CCNC(=O)[C@H](O)C(C)(C)COP(=O)(O)OP(=O)(O)OC[C@H]1O[C@@H](n2cnc3c(N)ncnc32)[C@H](O)[C@@H]1OP(=O)(O)O	pH 7.5, 25 °C, apparent	1260 ± 31.7
B8 (BaiA1)	C[C@H](CCC(=O)SCCNC(=O)CCNC(=O)[C@H](O)C(C)(C)COP(=O)(O)OP(=O)(O)OC[C@H]1O[C@@H](n2cnc3c(N)ncnc32)[C@H](O)[C@@H]1OP(=O)(O)O)[C@H]1CC[C@H]2[C@@H]3[C@H](O)C[C@@H]4CC(=O)CC[C@]4(C)[C@H]3C[C@H](O)[C@]12C	pH 8.7, 37 °C, with: NADH	0.55
PRXC1A (Armoracia rusticana, UniProt P00433)	CCn1c(=NN=c2sc3cc(S(=O)(=O)O)ccc3n2CC)sc2cc(S(=O)(=O)O)ccc21	pH 7, 25 °C, apparent	160 ± 10
B9 (asnB E349Q)	NC(=O)CC[C@H](N)C(=O)O	pH 8, 37 °C, 100 mM NaCl, glutaminase site, with: MgCl2; no ATP	4 ± 0.5
MMP9 (Homo sapiens, UniProt P14780)	CC(=O)N[C@@H](CCC(N)=O)C(=O)N1CCC[C@H]1C(=O)N[C@@H](CCC(N)=O)C(=O)NCC(=O)N[C@@H](CC(C)C)C(=O)N[C@@H](C)C(=O)N[C@@H](CCCCN)C(N)=O		25.4

Repeated from above:
Substance	substrate	setting	kcat [s⁻¹]
B6 (ltaE H83F)	C[C@H](O)[C@H](N)C(=O)O	pH 7, 30 °C, potassium phosphate 20 mM, retro-aldol cleavage, with: PLP 500 µM	0.0617
B7 (cyc1 F96W)	CC(C)=CCC/C(C)=C/CC/C(C)=C/CO[P@@](=O)(O)OP(=O)(O)O	pH 6.5, 30 °C, with: MgCl2 10 mM	0.00035 ± 2e-05
Ptb (Listeria monocytogenes, UniProt Q8Y7B7)	CC(C)C(=O)SCCNC(=O)CCNC(=O)[C@H](O)C(C)(C)COP(=O)(O)OP(=O)(O)OC[C@H]1O[C@@H](n2cnc3c(N)ncnc32)[C@H](O)[C@@H]1OP(=O)(O)O	pH 7.5, 25 °C, apparent	1260 ± 31.7
